Results of several laboratories.
Compare with care: the assays were run in different laboratories. Values joined by “and” are separate records of one study, mostly repeats; a detail may differ. Numbers after ± are the reported error.

Structure (SMILES) | test | system | conditions | scale | quantity | result
NCC(=O)Nc1cncc(-c2nn3c(=O)cc(N4CCNCC4)nc3s2)c1 | ADP-induced platelet aggregation, light transmission aggregometry | human stable CAD patients on aspirin, platelets ex vivo | 0.075 mg/kg, 180 min post dose, added: 20 µM ADP | relative to: placebo difference | inhibition of platelet aggregation | 2.31%
[Cl-].[Cl-].[Pt+2].[Ru+2].c1ccc(-c2nc3cc4ccccc4cc3nc2-c2ccccn2)nc1.c1cnc2c(c1)ccc1cccnc12.c1cnc2c(c1)ccc1cccnc12 | – | – | concentration not given, first substitution step, added: guanosine 5'-monophosphate | – | activation enthalpy | 7.65 ± 0.956 kcal/mol
Cc1ccc([C@@H]2O[C@H](CO)[C@@H](O)[C@H](O)[C@H]2O)cc1Cc1ccc(-c2ccc(F)cc2)s1 | – | Japanese type 2 diabetes patients | 100 mg, day 17 | relative to: day 1 | change in fasting serum insulin | -1.1 µU/mL
COc1cc(O)c(CC=C(C)C)c(O)c1C(=O)/C=C/c1ccc(O)cc1 | – | male Tac:SW conventional mice | in high-fat diet, dose not given, 5 weeks, not statistically significant | relative to: high-fat diet alone | average body weight | decreased
O=P(O)(O)C(Cl)(Cl)P(=O)(O)O | astrogliosis, immunostaining | Mus musculus, sham-operated, hippocampal fissure | dose not given, day 7 | relative to: total area | GFAP-positive area | 3.71%
OC(CCN1CCCCC1)(c1ccccc1)C1CC2C=CC1C2 (stereo not shown) | resting-state EEG | healthy elderly humans | oral, 4 mg, eyes closed, LS mean | – | EEG Beta2-power Pz-O2 | 1.1 µV²
CCO[C@H]1CCN(Cc2c(OC)cc(C)c3[nH]ccc23)[C@H](c2ccc(C(=O)O)cc2)C1 | – | PNH patients, blood | oral, 25 mg then 100 mg, week 4, mean absolute change | relative to: baseline | C3d-positive type III RBCs | -0.9%
CN[C@@H](C)C(=O)N[C@H]1CN(S(=O)(=O)c2cccc(S(=O)(=O)N3CC[C@H]4CC[C@@H](C(=O)NC(c5ccccc5)c5ccccc5)N4C(=O)[C@@H](NC(=O)[C@H](C)NC)C3)c2)CC[C@H]2CC[C@@H](C(=O)NC(c3ccccc3)c3ccccc3)N2C1=O | RECIST 1.1 | advanced pancreatic cancer patients | dose not given, prior therapy, added: AG | – | objective response rate | 16.7%
Cc1cc(C)c(CNC(=O)c2cc(Cl)c3c(c2C)O[C@@](C)([C@H]2CC[C@H](N(C)C)CC2)O3)c(=O)[nH]1 | – | human relapsed/refractory NHL | dose not given, measurable baseline disease | – | complete response rate | 25%
COc1cc2cc(-c3ccc(CC(=O)Nc4cc(C(C)(C)C(F)(F)F)no4)cn3)cnc2cc1OC | RECIST v1.1 | RET-altered advanced solid tumour patients | oral, 100 mg once daily, phase I | – | disease control rate | 100%
O=C(NS(=O)(=O)C1CC1)c1cc2ccccc2n1Cc1ccc(C2CC2)c2ccccc12 | – | mouse, acute hyperuricaemia model, serum | oral, 2 mg/kg | relative to: vehicle model | serum uric acid decrease | 74%
CCN1CCN(Cc2ccc(Nc3ncc(F)c(-c4cc(F)c5nc6n(c5c4)[C@H](C)CCC6)n3)nc2)CC1 | – | human advanced solid tumours | 300 mg, phase Ia monotherapy RECIST 1.1 | – | complete response | 0%
c1ccc(-c2n[nH]cc2-c2ccnc3ccccc23)nc1 | kinase binding, competitor, MIB/MS competition, measured: RIO2 | Candida albicans cell lysate | 1 µM | relative to: DMSO | log2 fold change | 0.937
Cc1cc(-c2nc(C(=O)Nc3cc4oc(N5CCOCC5)nc4nc3N3CC[C@@H](O)C3)co2)ccn1 | immunohistochemistry | mouse, intracranial B16-F10 melanoma | high dose, day 7 | relative to: vehicle | Ki67 expression | decreased
CCCCN1C[C@H](O)[C@@H](O)[C@H](O)[C@H]1CO | barrier function (TEER) | human ileal GI microtissue EpiIntestinal-FT | – | – | IC15 | > 100 µM
C[C@H]1C[C@H]2CSC(N)=N[C@@]2(c2nc(NC(=O)c3ccc(OC(F)F)cn3)cs2)CO1 | measured: Aβ1-40 | healthy adults, plasma | 5 mg once daily, day 7 | relative to: placebo | percent change from baseline | -58.2%
CC(=O)c1c(C)c2cnc(Nc3ccc(N4CCNCC4)cn3)nc2n(C2CCCC2)c1=O | immunohistochemistry | MCF7, mouse xenograft | 50 mg/kg, 4 days, 96 h after dose | direction not given | Ki67 H-score | 59.7
C[C@H](Oc1ccc(Br)cc1-c1ccon1)C(=O)O | muscle velocity recovery cycles | human, tibialis anterior muscle | 1200 mg single dose, 3.5 h | relative to: placebo | MVRC latency difference | 0.366 ms
CC1(C)OB(c2ccccc2/C=N/NC(=O)c2ccncc2)OC1(C)C | LC-UV | ADS buffer | 100 µM, 37 °C, added: H2O2 200 µM | – | activation rate constant | 0.0671 ± 0.0051 h⁻¹

Structure (SMILES) | test | system | conditions | scale | quantity | result
C[C@@H](NC(=O)N1C(=O)[C@H](Cc2ccnc(N)c2)[C@H]1C(=O)O)C1CCCCC1 | – | human | iv infusion, 1.5 mg/kg/h, 24 h | relative to: baseline | time to ACT Emax | 108 h
CN[C@@H]1COc2c(S(=O)(=O)NC(=O)Nc3c4c(cc5c3CCC5)CCC4)cnn2C1 | measured: IL-1β | human participants, whole blood ex vivo | 300 mg twice daily, multiple doses, 1 h, added: LPS/ATP | relative to: baseline | inhibition | 99.4%
CC(C)NCC(O)c1ccc(O)c(O)c1 (stereo not shown) | – | ventricular cardiomyocytes, C57BL/6 mouse | dose not given, 0.096 s | – | sarcomere length | 1.72 µm
O=C(c1ccc(OCCN2CCCCC2)cc1)c1c(-c2ccc(O)cc2)sc2cc(O)ccc12 | – | male ICR-CD1 mice, formalin test | intracerebroventricular, 100 µg/animal, 25 to 30 min | – | paw licking time | 0 s
CSCCNc1nc(SCCC(F)(F)F)nc2c1ncn2[C@@H]1O[C@H](COP(=O)(O)OP(=O)(O)C(Cl)(Cl)P(=O)(O)O)[C@@H](O)[C@H]1O | ADP-induced platelet aggregation, light transmittance aggregometry | human patients, platelet-rich plasma | dose not given, 2 h, aggregation above 59%, added: ADP 20 µM | relative to: patients | high residual platelet reactivity | 50%
[Cl-].[Cl-].[Pt+2].[Ru+2].c1ccc(-c2nc3ccccc3nc2-c2ccccn2)nc1.c1cnc2c(c1)ccc1cccnc12.c1cnc2c(c1)ccc1cccnc12 | – | – | concentration not given, second substitution step, added: L-methionine | – | activation enthalpy | 10.8 ± 0.717 kcal/mol
C[C@@H](O)CCOC(=O)C[C@@H](C)O | measured: C18-OH/C16-DC acylcarnitine | human, plasma | 60 min, log2-transformed values | – | metabolite level | -7.1 ± 0.54 µmol/L
O=C(O)/C=C/c1nccc2c3ccccc3n(Cc3ccc(Br)c4ccccc34)c12 | – | male mouse, acute hyperuricaemia model, serum | oral, 2 mg/kg, 4 h | – | serum uric acid | 241 ± 110 µM
CC(C)[C@H](C(=O)Nc1ccc(C(=O)NO)cc1)c1ccccc1 | volumetric MRI | human, right C1 intradural meningioma | dose not given, day 64 | – | tumour growth rate | 138 %/year
CCCC(CCC)C(=O)Oc1cccc(C(O)CCN)c1.O=CO (stereo not shown) | OCT imaging | BALB/cJ mouse, light-induced retinal damage | intraperitoneal, 10 mg/kg, 500 µm from optic nerve head, added: light 15000 lx for 8 h | – | outer nuclear layer thickness | 46.7 µm and 57.6 µm and 48.8 µm and 56.9 µm and 56.1 µm
FC(F)(F)Oc1cccc(-c2cnc3ccc(-c4ccncc4)nn23)c1 | – | MDA-MB-231 xenograft, NSG mouse | oral, 10 mg/kg daily, day 8 | higher = larger tumour | tumour size | 0.0506 a.u. and 0.148 a.u. and 0.0625 a.u. and 0.075 a.u.
Cc1ccc(C(=O)OCc2ccc([C@@H](CN)C(=O)Nc3ccc4cnccc4c3)cc2)c(C)c1 | tonometry | Macaca cyclopis, ocular normotensive | ocular, 0.02%, 56 h | – | IOP | 14.9 mmHg
O=C(O)CNC(=O)Cc1ccccc1 | – | ventricular cardiomyocytes, C57BL/6 mouse | dose not given, 0.2 s | – | sarcomere length | 1.62 µm
N#Cc1ccc2c(-c3ccncc3)c(-c3ccc(F)cc3)nn2c1 | kinase binding, competitor, MIB/MS competition, measured: YAK1 | Candida albicans cell lysate | 1 µM | relative to: DMSO | log2 fold change | 0.0417
CC(C)(O)c1coc(S(=O)(=O)NC(=O)c2cc3ccccc3n2Cc2ccc(Br)c3ccccc23)c1 | – | male mouse, acute hyperuricaemia model, serum | oral, 2 mg/kg, 4 h | – | serum uric acid | 318 ± 77.5 µM
C[C@H]1O[C@@H](O[C@H]2CC[C@@]3(C)[C@@H](CC[C@]4(C)[C@@H]3C=C[C@]35OC[C@@]6(CCC(C)(C)C[C@H]63)[C@@H](O)C[C@]54C)[C@]2(C)CO)[C@H](O)[C@@H](O[C@@H]2O[C@H](CO)[C@@H](O)[C@H](O)[C@H]2O)[C@H]1O | – | chronic-plus-binge ethanol mice, plasma | oral, 5 mg/kg/day for 7 d, 168 h | – | γ-GT activity | 36.9 U/L and 38.9 U/L and 30.9 U/L and 36.2 U/L and 26.1 U/L and 33.9 U/L and 34 U/L and 29.9 U/L
Cc1n[nH]c2ccc(-c3cc(OC[C@@H](N)Cc4ccccc4)cnc3-c3ccoc3)cc12 | kinase binding, competitor, MIB/MS competition, measured: GIN4 | Candida albicans cell lysate | 10 µM | relative to: DMSO | log2 fold change | -0.625
CC(=O)NCC(=O)NCC(=O)N[C@H](C(=O)N[C@@H](Cc1ccc(O)cc1)C(=O)N[C@@H](CO)C(=O)N[C@H]1CSSC[C@@H](C(=O)N[C@@H](CCCNC(=N)N)C(=O)N2CCC[C@H]2C(=O)N[C@@H](CCC(N)=O)C(=O)N[C@@H](CCCNC(=N)N)C(=O)NCC(=O)NCCC(=O)N[C@@H](CCCCNC(=O)CN(CC(=O)NCCCC[C@H](NC(=O)CCNC(=O)CNC(=O)[C@H](CCCNC(=N)N)NC(=O)[C@H](CCC(N)=O)NC(=O)[C@@H]2CCCN2C(=O)[C@H](CCCNC(=N)N)NC(=O)[C@@H]2CSSC[C@H](NC(=O)[C@H](CO)NC(=O)[C@H](Cc3ccc(O)cc3)NC(=O)[C@@H](NC(=O)CNC(=O)CNC(C)=O)[C@@H](C)O)C(=O)N[C@@H](Cc3c[nH]cn3)C(=O)N[C@@H](Cc3ccccc3)C(=O)NCC(=O)N[C@@H](C)C(=O)N[C@@H](CC(C)C)C(=O)N[C@@H]([C@@H](C)O)C(=O)N[C@@H](Cc3c[nH]c4ccccc34)C(=O)N[C@@H](C(C)C)C(=O)N2)C(N)=O)C(=O)CCN)C(N)=O)NC(=O)[C@H](C(C)C)NC(=O)[C@H](Cc2c[nH]c3ccccc23)NC(=O)[C@H]([C@@H](C)O)NC(=O)[C@H](CC(C)C)NC(=O)[C@H](C)NC(=O)CNC(=O)[C@H](Cc2ccccc2)NC(=O)[C@H](Cc2c[nH]cn2)NC1=O)[C@@H](C)O | – | healthy BALB/c mice | subcutaneous, 0.16 mg/kg, 6 d, single dose | – | haemoglobin | 164 g/L
